Experimental data collected from several papers.
Numbered parts are unrelated; each lists some results of a single study.
UniProt P50406, sequence (whole entry, looked up): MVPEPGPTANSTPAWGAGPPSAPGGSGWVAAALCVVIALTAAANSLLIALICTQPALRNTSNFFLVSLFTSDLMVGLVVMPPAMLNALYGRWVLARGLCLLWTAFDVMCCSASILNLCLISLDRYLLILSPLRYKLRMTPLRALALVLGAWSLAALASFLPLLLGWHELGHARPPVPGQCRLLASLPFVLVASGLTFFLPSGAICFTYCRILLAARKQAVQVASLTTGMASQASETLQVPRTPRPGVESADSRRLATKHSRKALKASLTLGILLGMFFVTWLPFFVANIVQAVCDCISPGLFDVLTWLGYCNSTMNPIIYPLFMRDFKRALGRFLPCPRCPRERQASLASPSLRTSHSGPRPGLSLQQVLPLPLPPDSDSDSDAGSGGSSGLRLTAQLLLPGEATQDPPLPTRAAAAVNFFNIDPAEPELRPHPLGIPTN
UniProt P41595, sequence (whole entry, looked up): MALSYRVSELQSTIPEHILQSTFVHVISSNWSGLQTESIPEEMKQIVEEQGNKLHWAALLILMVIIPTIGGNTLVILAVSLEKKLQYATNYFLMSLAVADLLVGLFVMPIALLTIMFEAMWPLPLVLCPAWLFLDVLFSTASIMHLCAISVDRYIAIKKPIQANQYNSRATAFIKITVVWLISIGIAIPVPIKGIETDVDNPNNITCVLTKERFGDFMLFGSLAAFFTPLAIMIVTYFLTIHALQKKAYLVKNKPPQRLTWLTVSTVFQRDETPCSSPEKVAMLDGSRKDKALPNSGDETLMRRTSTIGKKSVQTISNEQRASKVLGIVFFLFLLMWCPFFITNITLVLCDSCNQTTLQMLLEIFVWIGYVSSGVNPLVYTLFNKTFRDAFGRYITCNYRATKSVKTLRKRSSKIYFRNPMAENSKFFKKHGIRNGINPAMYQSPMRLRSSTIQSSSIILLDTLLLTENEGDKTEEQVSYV
UniProt Q96RR4, sequence (whole entry, looked up): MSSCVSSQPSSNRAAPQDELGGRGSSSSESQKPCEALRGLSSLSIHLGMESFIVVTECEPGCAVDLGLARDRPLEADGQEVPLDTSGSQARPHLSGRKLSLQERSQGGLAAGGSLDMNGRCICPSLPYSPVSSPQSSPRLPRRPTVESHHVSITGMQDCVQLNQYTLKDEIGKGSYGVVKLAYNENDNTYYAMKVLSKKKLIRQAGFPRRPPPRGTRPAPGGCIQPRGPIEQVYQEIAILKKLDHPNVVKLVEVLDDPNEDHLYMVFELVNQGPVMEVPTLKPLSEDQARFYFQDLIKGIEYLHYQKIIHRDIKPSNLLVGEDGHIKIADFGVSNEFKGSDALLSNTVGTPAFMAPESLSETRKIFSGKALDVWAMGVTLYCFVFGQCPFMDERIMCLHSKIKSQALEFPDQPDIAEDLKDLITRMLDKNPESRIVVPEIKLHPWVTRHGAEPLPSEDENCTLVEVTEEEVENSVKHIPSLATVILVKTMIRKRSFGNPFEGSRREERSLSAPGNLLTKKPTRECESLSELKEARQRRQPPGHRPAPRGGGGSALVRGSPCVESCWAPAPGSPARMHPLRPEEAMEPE
UniProt Q14164, sequence (whole entry, looked up): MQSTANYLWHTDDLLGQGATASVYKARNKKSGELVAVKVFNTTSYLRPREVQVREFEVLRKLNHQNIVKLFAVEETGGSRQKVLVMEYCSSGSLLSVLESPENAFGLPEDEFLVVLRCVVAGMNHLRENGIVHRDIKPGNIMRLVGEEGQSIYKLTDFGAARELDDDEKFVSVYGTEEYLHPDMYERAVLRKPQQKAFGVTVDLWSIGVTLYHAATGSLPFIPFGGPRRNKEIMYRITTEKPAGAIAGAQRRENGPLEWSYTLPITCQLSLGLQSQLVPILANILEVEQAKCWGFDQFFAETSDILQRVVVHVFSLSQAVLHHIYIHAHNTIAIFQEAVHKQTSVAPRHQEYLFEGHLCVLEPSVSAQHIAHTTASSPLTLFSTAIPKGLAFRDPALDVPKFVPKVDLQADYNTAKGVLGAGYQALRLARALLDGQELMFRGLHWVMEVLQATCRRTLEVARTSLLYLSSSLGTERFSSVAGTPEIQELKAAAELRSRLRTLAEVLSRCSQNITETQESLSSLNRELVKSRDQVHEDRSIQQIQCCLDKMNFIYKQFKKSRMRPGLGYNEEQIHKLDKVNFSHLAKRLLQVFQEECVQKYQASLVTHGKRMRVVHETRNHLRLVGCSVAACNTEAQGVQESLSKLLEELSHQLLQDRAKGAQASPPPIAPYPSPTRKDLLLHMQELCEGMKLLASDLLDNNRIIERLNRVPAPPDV
UniProt P53355, sequence (whole entry, looked up): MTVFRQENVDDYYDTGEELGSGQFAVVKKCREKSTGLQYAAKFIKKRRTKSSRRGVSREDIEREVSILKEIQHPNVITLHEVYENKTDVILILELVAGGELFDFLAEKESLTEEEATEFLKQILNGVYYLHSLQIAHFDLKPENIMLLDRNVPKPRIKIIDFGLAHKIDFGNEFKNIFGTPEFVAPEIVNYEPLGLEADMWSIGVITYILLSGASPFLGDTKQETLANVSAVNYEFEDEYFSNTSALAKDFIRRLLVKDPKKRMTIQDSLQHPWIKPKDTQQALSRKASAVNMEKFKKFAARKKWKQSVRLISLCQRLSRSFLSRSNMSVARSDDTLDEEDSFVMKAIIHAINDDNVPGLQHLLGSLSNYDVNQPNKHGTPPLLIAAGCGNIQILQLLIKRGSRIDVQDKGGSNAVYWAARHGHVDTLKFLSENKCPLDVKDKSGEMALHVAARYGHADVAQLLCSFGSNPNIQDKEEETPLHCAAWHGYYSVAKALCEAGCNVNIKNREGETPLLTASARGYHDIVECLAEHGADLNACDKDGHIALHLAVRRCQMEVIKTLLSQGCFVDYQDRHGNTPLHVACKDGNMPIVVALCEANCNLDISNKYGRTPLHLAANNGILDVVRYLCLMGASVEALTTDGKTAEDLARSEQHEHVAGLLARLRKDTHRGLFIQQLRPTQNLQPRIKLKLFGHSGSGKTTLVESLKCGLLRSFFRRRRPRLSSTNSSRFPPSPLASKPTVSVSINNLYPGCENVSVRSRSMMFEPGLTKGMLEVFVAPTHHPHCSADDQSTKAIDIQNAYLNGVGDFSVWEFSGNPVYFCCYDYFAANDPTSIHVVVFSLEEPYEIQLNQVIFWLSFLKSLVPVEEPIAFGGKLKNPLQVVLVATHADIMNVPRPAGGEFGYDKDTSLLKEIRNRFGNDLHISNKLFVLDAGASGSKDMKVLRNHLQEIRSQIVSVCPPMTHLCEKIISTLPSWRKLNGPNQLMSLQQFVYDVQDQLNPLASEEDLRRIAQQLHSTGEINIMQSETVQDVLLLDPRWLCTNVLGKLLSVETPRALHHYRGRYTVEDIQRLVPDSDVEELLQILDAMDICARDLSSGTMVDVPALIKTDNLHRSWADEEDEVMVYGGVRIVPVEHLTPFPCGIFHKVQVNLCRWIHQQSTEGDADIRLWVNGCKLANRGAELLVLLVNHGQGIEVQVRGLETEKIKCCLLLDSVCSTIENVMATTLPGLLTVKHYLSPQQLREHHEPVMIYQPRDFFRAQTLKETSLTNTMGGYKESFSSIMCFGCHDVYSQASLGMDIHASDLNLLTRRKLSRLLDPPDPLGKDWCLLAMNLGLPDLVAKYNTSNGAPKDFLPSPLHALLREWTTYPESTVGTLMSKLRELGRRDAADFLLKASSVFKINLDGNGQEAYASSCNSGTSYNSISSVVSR
UniProt Q00535, sequence (whole entry, looked up): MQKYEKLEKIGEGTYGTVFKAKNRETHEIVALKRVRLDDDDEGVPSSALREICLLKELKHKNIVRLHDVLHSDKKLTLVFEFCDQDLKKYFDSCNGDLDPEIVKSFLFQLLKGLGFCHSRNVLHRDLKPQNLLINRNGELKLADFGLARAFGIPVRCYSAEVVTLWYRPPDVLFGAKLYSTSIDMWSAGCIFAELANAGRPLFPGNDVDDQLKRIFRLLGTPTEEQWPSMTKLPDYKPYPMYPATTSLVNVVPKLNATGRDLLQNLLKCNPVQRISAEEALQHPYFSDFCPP
UniProt Q13976, sequence (whole entry, looked up): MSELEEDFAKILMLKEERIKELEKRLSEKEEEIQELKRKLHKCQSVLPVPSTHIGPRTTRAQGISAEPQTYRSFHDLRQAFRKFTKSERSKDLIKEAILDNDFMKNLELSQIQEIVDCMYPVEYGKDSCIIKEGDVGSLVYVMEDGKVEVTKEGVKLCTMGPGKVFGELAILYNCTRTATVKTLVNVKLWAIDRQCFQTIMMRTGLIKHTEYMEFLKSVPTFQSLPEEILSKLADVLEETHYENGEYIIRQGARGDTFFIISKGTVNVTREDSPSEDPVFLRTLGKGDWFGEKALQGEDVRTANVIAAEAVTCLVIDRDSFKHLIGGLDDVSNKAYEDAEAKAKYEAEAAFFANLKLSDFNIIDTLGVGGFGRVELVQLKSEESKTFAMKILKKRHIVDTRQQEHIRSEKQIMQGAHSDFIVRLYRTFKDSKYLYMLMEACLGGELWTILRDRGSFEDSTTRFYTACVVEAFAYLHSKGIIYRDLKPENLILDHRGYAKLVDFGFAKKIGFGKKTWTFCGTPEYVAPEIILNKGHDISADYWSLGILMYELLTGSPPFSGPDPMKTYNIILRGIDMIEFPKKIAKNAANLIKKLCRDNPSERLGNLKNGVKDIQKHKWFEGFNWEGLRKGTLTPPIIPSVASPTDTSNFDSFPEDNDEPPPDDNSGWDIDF
UniProt P45984, sequence (whole entry, looked up): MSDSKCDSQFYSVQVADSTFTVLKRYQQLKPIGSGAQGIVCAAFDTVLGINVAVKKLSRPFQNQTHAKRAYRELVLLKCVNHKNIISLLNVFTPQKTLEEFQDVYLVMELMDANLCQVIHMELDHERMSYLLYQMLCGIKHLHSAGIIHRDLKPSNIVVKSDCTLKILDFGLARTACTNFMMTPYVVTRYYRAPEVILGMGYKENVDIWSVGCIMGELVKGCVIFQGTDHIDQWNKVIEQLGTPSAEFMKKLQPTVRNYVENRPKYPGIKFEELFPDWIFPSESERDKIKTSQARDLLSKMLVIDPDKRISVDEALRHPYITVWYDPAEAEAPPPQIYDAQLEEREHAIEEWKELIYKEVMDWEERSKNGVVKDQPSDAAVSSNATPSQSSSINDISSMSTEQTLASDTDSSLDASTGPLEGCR

Set 1
Cell line: HuT78
Tested at: 2 µM
Time: 48 h
Reference: untreated
With `Cc1cnc(Nc2ccc(N3CCN(C)CC3)cc2)nc1Nc1cccc(S(=O)(=O)NC(C)(C)C)c1` the viability was 83.4%.
`COc1cc(F)c(F)c(Nc2ccc(I)cc2F)c1NS(=O)(=O)C1(C[C@H](O)CO)CC1` gave a viability of 93.5%.
With `Cc1ccc(NC(=O)c2cccc(N(C)C)c2)cc1NC(=O)c1ccc(O)cc1` the viability was 105%.
For `N#Cc1c(NC(=O)c2cccc3ccccc23)sc2c1CCCC2`, the viability was 94%.
The viability of `CNC(=O)c1ccccc1Nc1nc(Nc2ccc(N3CCOCC3)cc2OC)ncc1Cl` is reported as 89.4%.
`Cn1ncc(Cl)c1-c1cc(C(=O)N[C@H](CN)Cc2ccc(F)c(F)c2)oc1Cl` gave a viability of 107%.
For `O=C1NC(=O)/C(=C/c2ccc(-c3ccc(F)cc3O)o2)S1`, the viability was 129%.
The viability of `CCc1cnn2c(NCc3ccc[n+]([O-])c3)cc(N3CCCC[C@H]3CCO)nc12` is reported as 8.12%.
With `CS(=O)(=O)c1cccc(CNc2nc(Nc3ccc4c(c3)CCC(=O)N4)ncc2C(F)(F)F)c1` the viability was 110%.

Set 2
SMILES: CNCc1ccccc1-c1csc([C@H](C)Nc2nc(C)nc3cc(OC)c(OC)cc23)c1
Read-out: binding
Method: radioligand binding
Tested at: 10 µM
The inhibition was 93.5% (ADRA2A (Homo sapiens, UniProt P08913)).
The inhibition was 83.4% (ADRA1A (Homo sapiens, UniProt P35348)).
The inhibition was 18.2% (ADRB2 (Homo sapiens, UniProt P07550)).
It gave 20.2% for inhibition (HTR6 (Homo sapiens, UniProt P50406)).
It gave 54.1% for inhibition (CHRM5 (Homo sapiens, UniProt P08912)).
For TMEM97 (Homo sapiens, UniProt Q5BJF2): inhibition read 83.2%.
HTR2B (Homo sapiens, UniProt P41595) — inhibition: 97.3%.
HRH3 (Homo sapiens, UniProt Q9Y5N1) — inhibition: 24.6%.
The inhibition was 50.6% (DRD2 (Homo sapiens, UniProt P14416)).
DRD3 (Homo sapiens, UniProt P35462) — inhibition: 64.8%.
The inhibition was 31% (DRD4 (Homo sapiens, UniProt P21917)).
The inhibition was 49% (SIGMAR1 (Homo sapiens, UniProt Q99720)).

Set 3
Species: human
Medium: microsomes or S9
Tested at: 2 µM
Time: 0.5 h
For `COCCNC(=O)NC1(c2nc(C)no2)CCCCC1`, the remaining compound was 86.8%.
For `CCOC(=O)N1CCN(C2CCCc3sccc32)CC1` (centres unmarked), the remaining compound was 2.83%.
The remaining compound of `O=C(c1ccc(=O)[nH]c1)N1CCN(c2ncc(Cl)cn2)CC1` is reported as over 100%.
The remaining compound of `O=C1c2ccsc2CCC1N1CCN(c2ncccn2)CC1` (centres unmarked) is reported as 5.29%.
The remaining compound of `Cc1c(C(=O)OC(C)C)sc2ncn(CC(=O)O)c(=O)c12` is reported as 86.2%.
The remaining compound of `Cc1ccc2ncc(-c3ccc(CN(C)C)cn3)cc2c1` is reported as 85.9%.
`C(=C\c1ccccc1)/CN1CCN(c2cnc3ccccc3n2)CC1` gave a remaining compound of over 100%.
The remaining compound of `CS(=O)(=O)NCCOc1ccccc1-c1ccccc1` is reported as over 99%.
The remaining compound of `COC(=O)CNC(=O)C(C)NC(=O)/C=C/c1cc(-n2nc(C)n(C(F)F)c2=O)c(F)cc1Cl` (centres unmarked) is reported as 51.5%.
For `COc1cccc(-c2csc3[nH]cnc(=O)c23)c1`, the remaining compound was 26.3%.
For `Cc1cc(N(C)Cc2ncc(Br)cn2)n2nc(C)nc2n1`, the remaining compound was over 100%.

Set 4
SMILES: NC(=O)c1ccc(-c2nc(-c3ccc4c(c3)OCCO4)c(-c3ccccn3)[nH]2)cc1
Read-out: enzyme activity
Mode: inhibitor
Tested at: 0.5 µM
Reference: control
The remaining activity was 102% (PRKACA (Homo sapiens, UniProt P17612)).
It gave 99.7% for remaining activity (IKBKE (Homo sapiens, UniProt Q14164)).
For Tyrosine-protein kinase Lyn, isoform B (LYN, Homo sapiens, UniProt P07948): remaining activity read 102%.
The remaining activity was 89.3% (TGFBR2 (Homo sapiens, UniProt P37173)).
For MAPK9 (Homo sapiens, UniProt P45984): remaining activity read 102%.
For NEK2 (Homo sapiens, UniProt P51955): remaining activity read 105%.
For GRK3 (Homo sapiens, UniProt P35626): remaining activity read 96.5%.
It gave 103% for remaining activity (CAMKK2 (Homo sapiens, UniProt Q96RR4)).
The remaining activity was 94.7% (cGMP-dependent protein kinase 1, isoform beta (PRKG1, Homo sapiens, UniProt Q13976)).
The remaining activity was 97.6% (DAPK1 (Homo sapiens, UniProt P53355)).
For IKBKB (Homo sapiens, UniProt O14920): remaining activity read 102%.
It gave 93% for remaining activity (STK10 (Homo sapiens, UniProt O94804)).
It gave 92.7% for remaining activity (OXSR1 (Homo sapiens, UniProt O95747)).
The remaining activity was 84% (Cyclin-dependent kinase 4, with cyclin D1 (CDK4, Homo sapiens, UniProt P11802)).
For CHEK2 (Homo sapiens, UniProt O96017): remaining activity read 95%.
It gave 95.2% for remaining activity (CAMK2D (Homo sapiens, UniProt Q13557)).
For Cyclin-dependent kinase 5, with p25 (CDK5, Homo sapiens, UniProt Q00535): remaining activity read 91%.
The remaining activity was 107% (STK39 (Homo sapiens, UniProt Q9UEW8)).

Some of these lines once more (set 2):
The inhibition was 83.4% (ADRA1A (Homo sapiens, UniProt P35348)).
For TMEM97 (Homo sapiens, UniProt Q5BJF2): inhibition read 83.2%.
The inhibition was 18.2% (ADRB2 (Homo sapiens, UniProt P07550)).
The inhibition was 49% (SIGMAR1 (Homo sapiens, UniProt Q99720)).
